Results collected from several papers.
Each line is one published result; not all experiments were run side by side. Values joined by “and” are separate records of one study, mostly repeats; a detail may differ.
Genome polyprotein NS2B-NS3 protease: Genome polyprotein, NS2B-NS3 protease (dengue virus type 2, UniProt P29990)
CNR2: Cannabinoid receptor 2 (CNR2, Homo sapiens, UniProt P34972)
Chain of UniProt P34972 (whole entry, looked up): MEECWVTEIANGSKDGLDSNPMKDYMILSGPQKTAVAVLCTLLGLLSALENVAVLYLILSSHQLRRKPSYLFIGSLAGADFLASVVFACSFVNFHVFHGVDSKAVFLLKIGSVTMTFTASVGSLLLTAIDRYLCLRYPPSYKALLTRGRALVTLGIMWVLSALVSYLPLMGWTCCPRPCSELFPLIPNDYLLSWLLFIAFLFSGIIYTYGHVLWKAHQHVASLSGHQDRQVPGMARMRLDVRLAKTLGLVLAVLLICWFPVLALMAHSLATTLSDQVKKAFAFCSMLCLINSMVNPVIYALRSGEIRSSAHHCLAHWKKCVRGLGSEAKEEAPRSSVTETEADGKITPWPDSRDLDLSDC
Chain of UniProt Q92847 (whole entry, looked up): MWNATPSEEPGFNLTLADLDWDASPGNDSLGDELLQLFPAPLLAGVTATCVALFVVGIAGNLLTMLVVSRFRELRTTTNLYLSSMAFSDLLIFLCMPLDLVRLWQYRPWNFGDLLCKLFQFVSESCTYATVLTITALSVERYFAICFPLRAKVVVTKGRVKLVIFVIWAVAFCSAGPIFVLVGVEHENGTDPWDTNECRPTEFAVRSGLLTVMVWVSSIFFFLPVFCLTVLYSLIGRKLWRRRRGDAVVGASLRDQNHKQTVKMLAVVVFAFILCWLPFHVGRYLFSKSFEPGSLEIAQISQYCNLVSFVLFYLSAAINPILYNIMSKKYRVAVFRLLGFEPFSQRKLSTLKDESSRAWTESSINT
Chain of UniProt P30968 (whole entry, looked up): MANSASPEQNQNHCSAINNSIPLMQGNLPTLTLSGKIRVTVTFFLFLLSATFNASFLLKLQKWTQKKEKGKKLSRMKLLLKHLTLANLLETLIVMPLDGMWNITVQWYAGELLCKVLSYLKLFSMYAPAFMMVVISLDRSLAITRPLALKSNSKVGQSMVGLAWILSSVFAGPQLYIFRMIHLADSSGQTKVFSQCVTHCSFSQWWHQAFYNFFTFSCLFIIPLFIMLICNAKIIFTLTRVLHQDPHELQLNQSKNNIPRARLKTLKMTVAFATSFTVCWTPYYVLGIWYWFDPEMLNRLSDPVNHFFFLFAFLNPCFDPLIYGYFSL
Chain of UniProt P46089 (whole entry, unmodified, looked up): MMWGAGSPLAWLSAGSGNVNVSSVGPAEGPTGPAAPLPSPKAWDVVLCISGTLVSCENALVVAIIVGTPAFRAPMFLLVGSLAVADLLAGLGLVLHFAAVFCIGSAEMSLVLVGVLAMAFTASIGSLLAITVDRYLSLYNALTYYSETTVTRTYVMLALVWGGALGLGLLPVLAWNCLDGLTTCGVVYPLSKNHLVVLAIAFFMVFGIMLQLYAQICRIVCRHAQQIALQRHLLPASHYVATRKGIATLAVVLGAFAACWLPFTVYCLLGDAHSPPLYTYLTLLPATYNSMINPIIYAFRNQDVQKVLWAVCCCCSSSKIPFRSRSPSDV

Compound	target	effect on	action	technique	cells	time	EC50
O=C(c1cc(-c2ccccc2)n(-c2ccccc2)n1)N1CCC(N2CCCC2)CC1	Genome polyprotein NS2B-NS3 protease	reporter gene	–	–	HeLa	–	22 µM
CCOC(=O)C(CC)(CCCSCCOCCOCCNC(=O)OC(C)(C)C)NC(=O)c1ccc(C2CC2)c(Cc2ccc(F)cc2)n1 (racemic)	CNR2	cAMP	agonist	–	–	–	0.036 µM
COc1ccc(C(=O)c2c(C(=O)NCCCN(C)C)oc3ccc(Cl)cc3c2=O)cc1OC	GHSR (Homo sapiens, UniProt Q92847)	beta-arrestin-2 recruitment	–	BRET	HEK293T	60 min	0.0977 µM
Fc1ccc(CN2CCC[C@@H](c3nc(-c4ccc(F)c5cn[nH]c45)no3)C2)cn1	CNR2	–	agonist	GloSensor cAMP	CHO expressing CNR2	–	0.101 µM and 0.0915 µM
O=C(Cc1ccc(OCc2ccccc2)cc1)NC1(C(=O)O)CCN(C(=O)c2ccc(-c3cccc(Cl)c3)cc2)CC1	GNRHR (Homo sapiens, UniProt P30968)	inositol phosphate	agonist	–	–	–	> 10 µM
CC(C)Oc1cc(Cl)ccc1CNc1cc(-c2ccccc2)nc2ncnn12	GPR3 (Homo sapiens, UniProt P46089, Q215A)	cAMP level	–	cAMP GloSensor	–	–	0.437 µM
N=C(N)Nc1ccc(CNC(=O)c2cc(-c3ccccc3)n(-c3ccccc3)n2)cc1	Genome polyprotein NS2B-NS3 protease	reporter gene	–	–	HeLa	–	> 50 µM
CC1CCc2nccnc21 (stereo not shown)	uncharacterized protein (Canis lupus familiaris, UniProt A0A8I3P1R6)	cAMP level	agonist	cAMP luminescence	HEK293 cells	–	> 1500 µM
CCOC(=O)C(CC)(CCCSCCOCCOCCN=[N+]=[N-])NC(=O)c1ccc(C2CC2)c(Cc2ccc(F)cc2)n1 (stereo not shown)	CNR2	cAMP	agonist	–	–	–	0.0019 µM
NCc1ccc(NC(=O)c2cc(-c3ccccc3)n(-c3ccccc3)n2)cc1	Genome polyprotein NS2B-NS3 protease	reporter gene	–	–	HeLa	–	5.8 µM

Repeated from above:
Compound	target	effect on	action	technique	cells	time	EC50
N=C(N)Nc1ccc(CNC(=O)c2cc(-c3ccccc3)n(-c3ccccc3)n2)cc1	Genome polyprotein NS2B-NS3 protease	reporter gene	–	–	HeLa	–	> 50 µM
